Measured values pooled from the literature.
Each numbered part is a random draw from the data of one study; scales do not carry over between parts. Substitutions count along the parent as printed.

Block 1
Target: CCNB1, cyclin fold, Cln2 fusion (human)
Technique: yeast growth competition, sequencing
Medium: yeast
Setting: strong parent motif
Reference: not given
Reading: higher = stronger binding
Starting sequence: PKMYT1 docking peptide (human); SFEPRNLLSLFED; partner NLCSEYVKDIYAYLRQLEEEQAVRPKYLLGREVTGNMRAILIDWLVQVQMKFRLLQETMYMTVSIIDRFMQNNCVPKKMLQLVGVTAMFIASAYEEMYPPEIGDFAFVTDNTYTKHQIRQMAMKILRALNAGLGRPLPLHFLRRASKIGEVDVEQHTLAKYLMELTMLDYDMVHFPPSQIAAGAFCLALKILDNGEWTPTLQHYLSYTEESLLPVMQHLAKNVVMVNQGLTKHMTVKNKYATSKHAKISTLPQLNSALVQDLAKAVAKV
| Substitution | normalised enrichment score |
| --- | --- |
| F2G | -0.0172 |
| L8M | 1.94 |
| R5K F11L | 1.09 |
| E12V | 0.76 |
| S1K | 1.04 |
| F2P | 0.192 |
| S1H | 1.76 |
| E3S | 0.417 |
| L8K | 0.204 |
| D13H | 0.00507 |
| F11Q | 0.373 |
| S9I | 0.679 |
| E12G | -0.137 |
| N6H | 0.231 |
| L8I | 0.725 |
| N6M | -1.34 |
| S9Y | 1.71 |
| L8S | 0.396 |
| L8D | 0.247 |
| S9H | 0.636 |
| D13F | 1.12 |
| E12P | -0.574 |
| S9R | 0.985 |
| S9W | 1.06 |
| E3V | 2.34 |

Block 2
Target: ABI1, truncated, D143A, DHFR fusion (Arabidopsis thaliana)
Technique: DHFR PCA, deep sequencing
Medium: yeast
Setting: methotrexate growth selection, single substitutions
Together with: (+)-ABA 710 µM
Reference: wild-type fitted maximum
Reading: higher = stronger binding
Starting sequence: PYL1, truncated, DHFR fusion (Arabidopsis thaliana); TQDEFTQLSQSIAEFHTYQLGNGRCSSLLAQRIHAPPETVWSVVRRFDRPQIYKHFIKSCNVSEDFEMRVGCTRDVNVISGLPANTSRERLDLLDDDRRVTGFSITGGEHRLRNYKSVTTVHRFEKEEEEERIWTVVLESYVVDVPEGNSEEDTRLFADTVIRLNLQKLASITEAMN; partner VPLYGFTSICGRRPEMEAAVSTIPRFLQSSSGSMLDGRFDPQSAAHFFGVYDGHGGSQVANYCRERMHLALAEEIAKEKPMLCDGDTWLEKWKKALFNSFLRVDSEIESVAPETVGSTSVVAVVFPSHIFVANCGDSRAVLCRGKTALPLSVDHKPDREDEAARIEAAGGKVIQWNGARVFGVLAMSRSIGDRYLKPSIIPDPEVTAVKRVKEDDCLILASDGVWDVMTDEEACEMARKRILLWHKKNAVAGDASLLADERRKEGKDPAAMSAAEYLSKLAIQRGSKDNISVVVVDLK
| Substitution | relative binding score [%] |
| --- | --- |
| Q31W | 76.2 |
| G21T | 98.9 |
| R32Q | 101 |
| H16I | 19.1 |
| I33F | 45.7 |
| N22S | 105 |
| S80C | 64.9 |
| E147Y | 96.5 |
| G21F | 89.7 |
| V136K | 50.1 |
| C25F | 87.8 |
| C60F | 33.2 |
| D92Q | 86.6 |
| D65Y | 96.7 |
| G102T | 61 |
| S87T | 91.4 |

Block 3
Target: RNA binding protein fox-1 homolog 2, RRM domain, GST-SBP tag (RBFOX2, Homo sapiens, UniProt O43251-10, residues 100-194)
Technique: RNA Bind-n-Seq
Form: RNA
Medium: in vitro
Concentration: 365 nM
Setting: natural RNA segment, single round, ends assumed
Reference: no-protein control
Reading: higher = stronger binding
Residues (chain): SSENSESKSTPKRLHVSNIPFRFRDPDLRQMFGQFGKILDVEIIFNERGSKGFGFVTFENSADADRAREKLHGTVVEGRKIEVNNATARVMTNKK
| Oligonucleotide | RBNS enrichment (R) |
| --- | --- |
| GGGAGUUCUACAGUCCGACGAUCUUUUUUAAAAAUUGAGGAGCUUUAUUUCUAUUUACCCUUCCAUUUUUGUAUAUCAAAUUUCCAUUGUCAUUAAAAACUGUAUCUUGAAACUUUGUGAACUGACUUGCUGUUGGAAUUCUCGGGUGCCAA | 0.666 |
| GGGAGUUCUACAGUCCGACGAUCAUCAGCUCGCCUGGGACUGGCUCUGUGAUAAAAAGACCCCUCCCGCUGGGUUUUCAGACCCCAUGUUGUUGGUCAAUGAAAUAAAGCAUCUUACAGAAGGUGUUAACUGUUGGAAUUCUCGGGUGCCAA | 0.405 |
| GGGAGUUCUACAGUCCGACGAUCUAGCCCACCUCCCAAGGCACCUGUGCCUCCACUCAGGAUGUCUUGCUCUGACUGGCUCCCCUUCCAGACUGCCUUUUCUGGCCUUUCUGGGGUUCCCUGUUGGUGCCACAUGGAAUUCUCGGGUGCCAA | 0.562 |
| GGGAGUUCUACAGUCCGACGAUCUACUACUUUCUCAAAAUGGAAGCCCUUAAAGGUGCUUUGAUACUGAAGGACACAAAUGUGACCGUCCAUCCUCCUUUAGAGUUGCAUGACUUGGACACGGUAACUGUUGCUGGAAUUCUCGGGUGCCAA | 8.49 |
| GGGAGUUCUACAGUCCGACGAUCAUUUGGCACCUUUUCCUCACUUGUAGCUUCCCUAUGAUAGCUGAGCUAACCCUAAGGUUUCCUAGCUGUGGGAAGAGGUGAGUUCUUUGAGACCUCCGGCCUUAGGAAGUUGGAAUUCUCGGGUGCCAA | 0.215 |
| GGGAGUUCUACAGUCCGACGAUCGGGACUUUUUCUAGACUUACAUUUAUUCAAAUGCAUAGGAAUAUGUCCUUGUGAUUAUCAGGAUCUCCUAAUAUUUAUCUCAAUUCUUUUGUAAGCUUGUGGAAAUUAUUUGGAAUUCUCGGGUGCCAA | 0.702 |
| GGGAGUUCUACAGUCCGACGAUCCUGAAGGCAUGAAAAUCAAGUGUUCCCUGGAGUUUUGAAGCGAAGAUUCAGGGACAAGUUGAAAGGCACUGAAACUGUGUUGAAGCCAGAUGAGUAAUUAUAAGUAACUGUGGAAUUCUCGGGUGCCAA | 0.367 |
| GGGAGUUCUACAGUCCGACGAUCUAUUUUCCAGGGAGCUGAUAAAGCAGGAGAACUGUUGCUGCAUGUUUUCUAUUUGGACUCCGUCACAAUAUGGUAGGAUAUCCCUCACCAACUCCCGACACUCAGCAGACUGGAAUUCUCGGGUGCCAA | 1.06 |
| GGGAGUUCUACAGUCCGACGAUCCCCUUGCUGCCGCGGGCCAGGAACAGGAAUGUGUUGGUGCCUGAGACACCAAAUGGAAGAAGCACAUCAAGACUGUUCUCCUGCGGCCAACACUGGCCCGGAAGCCGCCCUGGAAUUCUCGGGUGCCAA | 0.643 |
| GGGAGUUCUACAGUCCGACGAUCAGUACAAGUGCGAUUUCAAAAAGAUCUUGAAAGUAAUAUAUUUAAUCAAUUAAAAUGUUUAUCUGUACUUGUUGAUGUUUCAUUAAUAUAGUUACUCUCUGAAGCAUUAGUGGAAUUCUCGGGUGCCAA | 0.472 |
| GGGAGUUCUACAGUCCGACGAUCACAACAACAAAAGUGUCAUAUUUUAGAAGGCCUAGAGGUGACUCAUUUUAGAUAUAUAUACUUUGUUUUGGAAUAUUUGGUUGUAUAAAAUGUAAUGAGUGAGCUAAUUGUGGAAUUCUCGGGUGCCAA | 0.829 |
| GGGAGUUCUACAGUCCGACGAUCAGUUGUGGUAGAGCAAAGACCCACAGGGGUUGGACCCAGACCUCUUAAAACCUGGCUGGACCCCCAUGAGUCCACGCAGAGUCAAUAACUCACCUGUCAUGCUGUUCCCAUGGAAUUCUCGGGUGCCAA | 0.382 |

Block 4
Target: Ras GTPase-activating protein-binding protein 1, C-terminal RGG region (G3BP1, Homo sapiens, UniProt Q13283)
Sequence of UniProt Q13283 (whole entry, looked up): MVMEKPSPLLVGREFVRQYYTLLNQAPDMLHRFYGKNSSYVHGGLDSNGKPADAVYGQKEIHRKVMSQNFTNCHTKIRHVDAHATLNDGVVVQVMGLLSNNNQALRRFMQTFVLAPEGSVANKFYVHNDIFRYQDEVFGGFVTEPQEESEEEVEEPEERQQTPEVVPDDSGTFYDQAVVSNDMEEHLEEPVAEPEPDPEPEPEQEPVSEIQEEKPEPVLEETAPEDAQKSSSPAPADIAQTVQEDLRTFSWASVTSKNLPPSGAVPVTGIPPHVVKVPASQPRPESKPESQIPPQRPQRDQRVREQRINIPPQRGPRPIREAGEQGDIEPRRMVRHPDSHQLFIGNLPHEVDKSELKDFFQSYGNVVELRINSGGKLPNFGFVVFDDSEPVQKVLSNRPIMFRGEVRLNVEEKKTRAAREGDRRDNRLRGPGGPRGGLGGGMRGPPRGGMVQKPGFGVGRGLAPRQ
Technique: RNA Bind-n-Seq
Form: RNA
Medium: in vitro
Concentration: 1 µM
Setting: whole 134-nt RNA, ends assumed
Together with: 150 mM KCl
Reference: input library
Reading: higher = stronger binding
| Oligonucleotide | log2 enrichment |
| --- | --- |
| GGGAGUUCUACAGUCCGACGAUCCACAGACAACACGCACCCACACAGACACAGAGGGAAGGGGUUGGGAUGGGGACAGGGUGCACAGCAGGGCAAAGUAGGACCCCAGCCCCUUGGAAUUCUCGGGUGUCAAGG | -0.308 |
| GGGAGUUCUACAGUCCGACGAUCGUCCUGUGCUACACAUCGUAUGUACCGAAUCGGGCCCCCGGGGCCCCCGGCCCCCGGGAAAGUAUUAUGUUACGCCGUUCGGAUCUGCACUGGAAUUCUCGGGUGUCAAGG | -1.56 |
| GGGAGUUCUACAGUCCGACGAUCCUGUGCUACACAUCGUAUGUACCGAAUCGGGUUUUUUUGGUUUUUUUGGGGUUUUUUUGGGGAAAGUAUUAUGUUACGCCGUUCGGAUCUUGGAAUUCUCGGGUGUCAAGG | -1.14 |
| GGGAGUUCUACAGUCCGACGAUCAGUCCUGUGCUACACAUCGUAUGUACCGAAUCGGGAAAAAGGAAAAAGGGAAAAAGGAAAGUAUUAUGUUACGCCGUUCGGAUCUGCACUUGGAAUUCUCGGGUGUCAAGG | -1.9 |
| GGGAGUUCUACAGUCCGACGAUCGUCCUGUGCUACACAUCGUAUGUACCGAAUCGGAAAAAGGGGAAAAAGGGAAAAAGGGAAAGUAUUAUGUUACGCCGUUCGGAUCUGCACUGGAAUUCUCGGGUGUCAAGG | -0.821 |
| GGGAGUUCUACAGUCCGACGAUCUCAAGUCCUGUGCUACACAUCGUAUGUACCGAAUCGGGGCCCGGCCCGGCCCGGGAAAGUAUUAUGUUACGCCGUUCGGAUCUGCACUUCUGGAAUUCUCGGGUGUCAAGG | -1.77 |
| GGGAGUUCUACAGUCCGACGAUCUUGUUCUGGCAUAAACAUAACAUUGAGAAGUCCCUUGCUGAUCUCCCUAAUUUCACUCCCUUUCCGGAUGAGUGGACAGUGGAAGAUAAAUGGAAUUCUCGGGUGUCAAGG | -0.98 |
| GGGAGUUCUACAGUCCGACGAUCAGUCCUGUGCUACACAUCGUAUGUACCGAAUCGGAAAAAGGGGAAAAAGGAAAAAGGAAAGUAUUAUGUUACGCCGUUCGGAUCUGCACUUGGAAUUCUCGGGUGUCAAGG | -1.46 |
| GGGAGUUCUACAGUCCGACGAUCGCAGGAAGUAAAAACAAAUGGAAAUGCUUCGGAUAGUGGCAGGGGUGGGGGUUGCUAAGGAAAGGGUGGGAUGGGAGCGGGUAAAGAGUUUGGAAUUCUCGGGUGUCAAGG | 1.74 |
| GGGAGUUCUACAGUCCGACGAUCAAGUCCUGUGCUACACAUCGUAUGUACCGAAUCGGGAAAGGGUUUUUGGGAAAGGGAAAGUAUUAUGUUACGCCGUUCGGAUCUGCACUUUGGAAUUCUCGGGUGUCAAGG | 0.631 |
| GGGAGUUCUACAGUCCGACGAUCUGGGAGGUGGAUUUUGUUUAUUUUUUUAGCCCAUUUCCAGGGGUGGGAAUUUUUUUUUAAUAUGUGUCAUGAAUAAAGUUGUUUUUGAAAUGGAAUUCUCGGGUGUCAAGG | 3.04 |
| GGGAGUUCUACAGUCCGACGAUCUGGGAGGUGGAUUUUGUUUAUUUUUUUAGCUCAAUUCCAGGGGUGGGAAUUUUUUUUUAAUAUGUGUCAUGAAUAAAGUUGUUUUUGAAAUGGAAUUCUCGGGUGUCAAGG | 3.38 |
| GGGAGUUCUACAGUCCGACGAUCAGUCCUGUGCUACACAUCGUAUGUACCGAAUCGGGUUUUUGGUUUUUGGGGUUUUUGGAAAGUAUUAUGUUACGCCGUUCGGAUCUGCACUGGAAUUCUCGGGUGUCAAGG | -1.24 |
| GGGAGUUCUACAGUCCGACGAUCUAGUCCAGCAUCAAGAUUCGCCGGCCUGGAUACAAAUCAGCGACUUACAGCUUUAGCUGAAGACAGACCGUUAUUUGAUGGACCUAGUAGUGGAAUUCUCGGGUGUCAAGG | -2.15 |

A few entries again (block 1):
| Substitution | normalised enrichment score |
| --- | --- |
| L8D | 0.247 |
| S9H | 0.636 |
| D13F | 1.12 |
| E12P | -0.574 |
| S9R | 0.985 |
